{"data": "Results pooled from the literature", "note": "Compare with care: the assays were run in different laboratories. ± gives the spread as reported."}
{"SMILES": "O=C(O)CCCOc1ccc([18F])cc1-c1cc(-c2ccccc2C(F)(F)F)n(-c2ccccc2)n1", "test system": "mouse, blood", "setting": "intravenous, dose not given, 60 min", "tissue uptake": "0.21 ± 0.06 %ID/g"}
{"SMILES": "CC(C)Cc1ccc(C(C)C(=O)N[C@@H](CCCCNC(=O)CCOCCOCCOCCOCCOCCOCCNC(=O)CN2CCN(CC(=O)[O-])CCN(CC(=O)[O-])CCN(CC(=O)[O-])CC2)C(=O)Nc2cccc3c(C(=O)NCC(=O)N4CC(F)(F)C[C@H]4C#N)ccnc23)cc1.[177Lu+3] (some centres unmarked)", "test system": "mouse, U-87 MG tumour xenograft, lung", "setting": "48 h", "tissue uptake": "0.42 ± 0.09 %ID/g"}
{"SMILES": "COc1cccc(OC)c1-c1cc(C(=O)NC2(C(=O)O)C3CC4CC(C3)CC2C4)nn1-c1ccc(C(=O)N(C)CCOCCN(C)C(=O)[C@H](CCCCNC(=O)[C@H](CC(C)C)NC(=O)C2OC2C(=O)O)NC(=O)CN2CCN(CC(=O)[O-])CCN(CC(=O)[O-])CCN(CC(=O)[O-])CC2)cc1C(C)C.[177Lu+3] (mixture of isomers)", "test system": "mouse, HT-29 xenograft, kidney", "setting": "72 h post injection", "tissue uptake": "5.2 %ID/g"}
{"SMILES": "N#C[C@@H]1CC(F)(F)CN1C(=O)CNC(=O)c1ccnc2c(NC(=O)[C@H](CCCCNC(=O)CCOCCOCCOCCOCCOCCOCCNC(=O)CN3CCN(CC(=O)[O-])CCN(CC(=O)[O-])CCN(CC(=O)[O-])CC3)NC(=O)CCCc3ccc(I)cc3)cccc12.[177Lu+3]", "test system": "mouse, U-87 MG tumour xenograft, spleen", "setting": "96 h", "tissue uptake": "0.58 ± 0.08 %ID/g"}
{"SMILES": "CCCC[C@H](NC(=O)CNC(=O)CNC(=O)[C@H](CCCCNC(=O)[C@H](CC(=O)O)NC(=O)C(C)c1ccc(CC(C)C)cc1)NC(=O)CN1CCN(CC(=O)O)CCN(CC(=O)O)CCN(CC(=O)O)CC1)C(=O)N[C@H]1CC(=O)NCCCC[C@@H](C(N)=O)NC(=O)[C@H](Cc2c[nH]c3ccccc23)NC(=O)[C@H](CCCNC(=N)N)NC(=O)[C@@H](Cc2ccccc2)NC(=O)[C@H](Cc2c[nH]cn2)NC1=O (some centres unmarked) [lutetium-177 labelled]", "test system": "C57 mouse, bone", "setting": "intravenous, 2 h, added: 10 µg NDP-MSH co-injection", "tissue uptake": "0.45 ± 0.17 %ID/g"}
{"SMILES": "[123I]c1ccc2nc(-c3ccc(-n4ccnn4)nc3)cn2c1", "test system": "Wistar rat, male, red marrow", "setting": "intravenous, 4 MBq, 3 h", "tissue uptake": "0.047 ± 0.013 %ID/g"}
{"SMILES": "COc1cccc(OC)c1-c1cc(C(=O)NC2(C(=O)O)C3CC4CC(C3)CC2C4)nn1-c1ccc(C(=O)N(C)CCCN(C)CCCN(C)C(=O)[C@H](CCCCNC(=O)[C@H](CC(C)C)NC(=O)C2OC2C(=O)O)NC(=O)CN2CCN(CC(=O)[O-])CCN(CC(=O)[O-])CCN(CC(=O)[O-])CC2)cc1C(C)C.[177Lu+3] (mixture of isomers)", "test system": "mouse, HT-29 xenograft, heart", "setting": "24 h post injection", "tissue uptake": "0.3 %ID/g"}
{"SMILES": "Cc1cc(C)n(CCN(CCN)CCCCCCNC(=O)[C@@H](N)Cc2c[nH]cn2)n1.[99Tc+].[C-]#[O+].[C-]#[O+].[C-]#[O+]", "test system": "BALB/c nude mice, MCF7 xenograft, kidney", "setting": "intravenous, 4 h", "tissue uptake": "12.5 ± 2.28 %IA/g"}
{"SMILES": "COc1cccc(OC)c1-c1cc(C(=O)NC2(C(=O)O)C3CC4CC(C3)CC2C4)nn1-c1ccc(C(=O)NCCNC(=O)[C@H](CCCCNC(=O)[C@H](CC(C)C)NC(=O)C2OC2C(=O)O)NC(=O)CN2CCN(CC(=O)[O-])CCN(CC(=O)[O-])CCN(CC(=O)[O-])CC2)cc1C(C)C.[177Lu+3] (mixture of isomers)", "test system": "mouse, HT-29 xenograft, lung", "setting": "72 h post injection", "tissue uptake": "0.41 %ID/g"}
{"SMILES": "[11CH3]N1CCC(NC(=O)c2cc(-c3c(O)cc(O)cc3Oc3ccc([N+](=O)[O-])cc3)on2)CC1", "test system": "Wistar rat, female, healthy, kidneys", "setting": "intravenous, 2 min", "tissue uptake": "14.8 ± 1.2 %ID"}
{"SMILES": "N#C[C@@H]1CC(F)(F)CN1C(=O)CNC(=O)c1ccnc2c(NC(=O)[C@@H](N)CCCCNC(=O)CCOCCOCCOCCOCCOCCOCCNC(=O)CN3CCN(CC(=O)[O-])CCN(CC(=O)[O-])CCN(CC(=O)[O-])CC3)cccc12.[177Lu+3]", "test system": "mouse, U-87 MG tumour xenograft, kidneys", "setting": "1 h", "tissue uptake": "7.33 ± 0.95 %ID/g"}
{"SMILES": "COc1cccc(OC)c1-c1cc(C(=O)NC2(C(=O)O)C3CC4CC(C3)CC2C4)nn1-c1ccc(C(=O)N(C)CCOCCOCCN(C)C(=O)[C@H](CCCCNC(=O)[C@H](CC(C)C)NC(=O)C2OC2C(=O)O)NC(=O)CN2CCN(CC(=O)[O-])CCN(CC(=O)[O-])CCN(CC(=O)[O-])CC2)cc1C(C)C.[177Lu+3] (mixture of isomers)", "test system": "mouse, HT-29 xenograft, liver", "setting": "24 h post injection", "tissue uptake": "1.18 %ID/g"}
{"SMILES": "N#C[C@@H]1CC(F)(F)CN1C(=O)CNC(=O)c1ccnc2c(NC(=O)CCOCCOCCOCCOCCOCCOCCNC(=O)[C@H](CCCCNC(=O)CN3CCN(CC(=O)[O-])CCN(CC(=O)[O-])CCN(CC(=O)[O-])CC3)NC(=O)CCCc3ccc(I)cc3)cccc12.[177Lu+3]", "test system": "mouse, U-87 MG tumour xenograft, lung", "setting": "1 h", "tissue uptake": "5.38 ± 1.08 %ID/g"}
{"SMILES": "O=C(NCC1OC2CCC=CCCC2O1)c1ccc([18F])nc1 (centres unmarked)", "test system": "healthy female BALB/c nude mice, blood", "setting": "intravenous, 7.4 MBq per mouse, 60 min", "tissue uptake": "1.3 ± 0.2 %ID/g"}
{"note": "For quick reference, copied from above:"}
{"SMILES": "COc1cccc(OC)c1-c1cc(C(=O)NC2(C(=O)O)C3CC4CC(C3)CC2C4)nn1-c1ccc(C(=O)N(C)CCCN(C)CCCN(C)C(=O)[C@H](CCCCNC(=O)[C@H](CC(C)C)NC(=O)C2OC2C(=O)O)NC(=O)CN2CCN(CC(=O)[O-])CCN(CC(=O)[O-])CCN(CC(=O)[O-])CC2)cc1C(C)C.[177Lu+3] (mixture of isomers)", "test system": "mouse, HT-29 xenograft, heart", "setting": "24 h post injection", "tissue uptake": "0.3 %ID/g"}
